Results pooled from the literature.
A part holds a random share of what one study measured.
Sequence of UniProt P20231 (whole entry, looked up): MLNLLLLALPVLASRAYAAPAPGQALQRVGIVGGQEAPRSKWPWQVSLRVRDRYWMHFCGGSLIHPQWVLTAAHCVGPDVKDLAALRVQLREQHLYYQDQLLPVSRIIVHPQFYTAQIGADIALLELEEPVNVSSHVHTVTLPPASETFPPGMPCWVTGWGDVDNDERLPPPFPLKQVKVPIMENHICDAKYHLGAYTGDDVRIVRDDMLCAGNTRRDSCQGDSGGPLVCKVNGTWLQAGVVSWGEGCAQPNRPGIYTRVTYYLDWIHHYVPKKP
Sequence of UniProt Q9Y337 (whole entry, looked up): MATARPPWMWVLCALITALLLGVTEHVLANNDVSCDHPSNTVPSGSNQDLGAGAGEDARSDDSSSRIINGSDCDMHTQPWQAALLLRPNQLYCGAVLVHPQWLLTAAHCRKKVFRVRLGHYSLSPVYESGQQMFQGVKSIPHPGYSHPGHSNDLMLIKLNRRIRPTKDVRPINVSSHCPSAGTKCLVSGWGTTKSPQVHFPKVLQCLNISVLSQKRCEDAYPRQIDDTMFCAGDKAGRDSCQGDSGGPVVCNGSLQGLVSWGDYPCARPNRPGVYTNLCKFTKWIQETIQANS
Sequence of UniProt P61075 (whole entry, looked up): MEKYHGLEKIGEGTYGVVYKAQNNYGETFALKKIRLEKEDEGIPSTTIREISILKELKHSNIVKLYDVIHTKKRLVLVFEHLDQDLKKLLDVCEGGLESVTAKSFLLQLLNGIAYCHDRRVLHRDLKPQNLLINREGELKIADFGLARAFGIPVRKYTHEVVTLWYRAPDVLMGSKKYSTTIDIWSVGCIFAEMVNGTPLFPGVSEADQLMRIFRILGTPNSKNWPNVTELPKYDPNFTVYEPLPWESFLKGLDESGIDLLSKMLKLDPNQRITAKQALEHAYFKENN
Sequence of UniProt P03952 (whole entry, looked up): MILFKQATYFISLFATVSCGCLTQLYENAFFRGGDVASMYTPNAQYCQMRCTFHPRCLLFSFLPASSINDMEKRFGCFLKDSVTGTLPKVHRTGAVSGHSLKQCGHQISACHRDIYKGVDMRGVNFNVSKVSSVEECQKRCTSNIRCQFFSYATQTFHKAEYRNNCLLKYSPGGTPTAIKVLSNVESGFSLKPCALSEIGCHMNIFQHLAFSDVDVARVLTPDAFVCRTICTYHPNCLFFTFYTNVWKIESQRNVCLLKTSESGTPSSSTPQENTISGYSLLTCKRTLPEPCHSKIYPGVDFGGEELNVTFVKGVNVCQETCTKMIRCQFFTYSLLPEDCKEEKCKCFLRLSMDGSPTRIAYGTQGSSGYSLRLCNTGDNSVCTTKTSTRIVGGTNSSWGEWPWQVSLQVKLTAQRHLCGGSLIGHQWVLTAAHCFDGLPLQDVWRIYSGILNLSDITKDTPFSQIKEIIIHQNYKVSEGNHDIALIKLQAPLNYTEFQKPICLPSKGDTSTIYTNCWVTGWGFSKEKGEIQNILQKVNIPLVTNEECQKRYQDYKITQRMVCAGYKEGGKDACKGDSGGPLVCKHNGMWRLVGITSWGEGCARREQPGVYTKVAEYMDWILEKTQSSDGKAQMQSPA

Set 1
SMILES: N=C(N)c1ccc2cc(OC(=O)c3ccc(N=C(N)N)cc3)ccc2c1
Endpoint: IC50
Kallikrein-5 (Homo sapiens, UniProt Q9Y337): 637 nM
Tryptase beta-2 (TPSB2, Homo sapiens, UniProt P20231): < 0.508 nM
Plasma kallikrein (KLKB1, Homo sapiens, UniProt P03952): < 0.508 nM
Urokinase-type plasminogen activator (PLAU, Homo sapiens, UniProt P00749): < 0.508 nM

Set 2
Target: Leukocyte tyrosine kinase receptor (LTK, Homo sapiens, UniProt P29376)
Sequence of UniProt P29376 (whole entry, looked up): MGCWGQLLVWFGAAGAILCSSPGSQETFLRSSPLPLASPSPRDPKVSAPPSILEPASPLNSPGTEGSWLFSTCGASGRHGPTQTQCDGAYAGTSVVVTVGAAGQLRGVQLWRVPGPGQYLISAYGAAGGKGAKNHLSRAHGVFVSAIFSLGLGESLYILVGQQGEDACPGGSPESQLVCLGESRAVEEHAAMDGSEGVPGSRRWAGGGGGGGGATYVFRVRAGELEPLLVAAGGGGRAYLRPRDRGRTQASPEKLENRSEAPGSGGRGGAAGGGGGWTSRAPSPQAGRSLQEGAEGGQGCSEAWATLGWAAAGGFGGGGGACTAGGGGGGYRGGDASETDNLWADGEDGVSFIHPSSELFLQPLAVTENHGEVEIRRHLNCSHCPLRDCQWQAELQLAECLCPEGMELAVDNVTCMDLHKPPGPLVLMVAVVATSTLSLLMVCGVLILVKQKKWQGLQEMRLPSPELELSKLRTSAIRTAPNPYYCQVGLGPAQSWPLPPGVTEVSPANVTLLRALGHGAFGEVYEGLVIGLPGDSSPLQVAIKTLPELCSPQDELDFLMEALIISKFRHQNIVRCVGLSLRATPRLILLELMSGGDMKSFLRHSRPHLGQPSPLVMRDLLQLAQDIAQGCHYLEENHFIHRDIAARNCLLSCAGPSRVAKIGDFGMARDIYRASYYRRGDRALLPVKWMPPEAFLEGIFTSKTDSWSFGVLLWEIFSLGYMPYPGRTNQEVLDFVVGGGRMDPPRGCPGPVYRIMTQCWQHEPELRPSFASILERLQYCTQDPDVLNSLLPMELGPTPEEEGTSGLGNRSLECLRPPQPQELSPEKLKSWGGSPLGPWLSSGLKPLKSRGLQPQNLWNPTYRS
Read-out: enzyme activity
Action: inhibitor
Method: radiometric
Concentration: 0.5 µM
Endpoint: remaining activity
CC(C)(C)c1nc2c3cc[nH]c(=O)c3c3cc(F)ccc3c2[nH]1: 20.6%
COc1cc2c(Nc3ccc(Br)cc3F)ncnc2cc1OCC1CCN(C)CC1: 64.6%
Nc1nc(Nc2ccc(S(N)(=O)=O)cc2)nn1C(=S)Nc1c(F)cccc1F: 27.6%

Set 3
Cell line: mouse MPNST tumor cells
Method: high-content immunofluorescence imaging
Measured: nuclear SOX9
Concentration: 10 µM
Time: 12 h
Notes: mean of 2 replicates
Relative to: DMSO control
Direction: higher = more nuclear SOX9
Endpoint: nuclear SOX9 intensity
CCN[C@@H](C)Cc1cccc(C(F)(F)F)c1: 100 % of DMSO
C=CCN1C[C@H](C(=O)N(CCCN(C)C)C(=O)NCC)C[C@@H]2c3cccc4[nH]cc(c34)C[C@H]21: 109 % of DMSO
CC(C)c1ccccc1C1SCC(=O)Nc2ccc(Cl)cc21 (stereo not drawn): 103 % of DMSO
CCNCC(O)c1cccc(O)c1 (stereo not drawn): 92.9 % of DMSO

Mixed results
CO[C@@H](C)c1c(Nc2ccc([C@@H](N(C)C(=O)C3CCS(=O)(=O)CC3)C(F)(F)F)cc2)cnc2cc(Cl)nn12
remaining binding (Cyclin-dependent kinase 2 homolog (CRK2, Plasmodium falciparum, UniProt P61075); cell-free assay, competition with immobilised ligand; 1 µM): 100%
